Assay results pooled from the literature.
Parts stem from different laboratories: compare values within a part only.

Series 1 — method: RNA Bind-n-Seq; molecule type: RNA; medium: in vitro; tested at: not given; reference: input RNA pool; direction: higher = stronger binding
Target: RING finger protein unkempt homolog, zinc fingers 1-6, GST-SBP tag (UNK, Homo sapiens, UniProt Q9C0B0, residues 30-357)
Chain of UniProt Q9C0B0 (30-357, looked up): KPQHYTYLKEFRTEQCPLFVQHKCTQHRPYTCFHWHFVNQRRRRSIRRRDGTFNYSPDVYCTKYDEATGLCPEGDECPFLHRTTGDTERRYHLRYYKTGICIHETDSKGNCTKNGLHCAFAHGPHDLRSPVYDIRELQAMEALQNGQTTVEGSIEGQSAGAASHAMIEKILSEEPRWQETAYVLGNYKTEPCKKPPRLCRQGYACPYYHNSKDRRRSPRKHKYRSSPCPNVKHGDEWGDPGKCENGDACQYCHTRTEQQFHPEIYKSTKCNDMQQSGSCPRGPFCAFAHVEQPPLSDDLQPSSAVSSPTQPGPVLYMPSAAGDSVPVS
Setting: RNA with constant flanks, human-mouse chimeric sites, ends assumed
All sequences stand within: GGGAGUUCUACAGUCCGACGAUC … CAACAGAGGAUUGAGCAUCA
Strand	bound/input enrichment
ACUCAGAGAUCCACCUCAAUUGAAGUGGGGAGUAAAGGUGUGGCCACCACACCUAACUUGAUGGAUAUAUAUUUUUUUUAAUAUGAAUGAACUCUUGCGUCCAGGGAAGAAAGAUUUGUU	0.337 ratio
CACAGAGCAGCACCUACCUCCUCCUUCUUUCCACACCUGCAAACUCUUUUACUUGGGCUGAAUAUUUAGUGUAAUUACAUCUCAGCUUUGAGGGCUCCUGUGGCAAAUUCCCGGAUUAAA	0.751 ratio
CAGUCCCCGUGUCCCAGUGCAGGACGAUGUGAACAAAAACUCAAAGCGGCCCUUUCUUUGUAGUUCUUGAUUCUCGAGUGCCAUUAUUAUUGUUUGUCUUUUUUUUUUUUUUUUUAAAGA	1.05 ratio
UAUCCAACUUUCUUGCCACAUUUUGAAUUCCAAGACAUUAUCCCUCCAGAUGACUUCCUAACGAGUGAUGAAGAGCAAGAUUUGGUUUUAUUUGGAACUAUGAGAGGACAAGUUGUUGGA	0.124 ratio
CAGCUGCGAGGCCGCGGGUGCCCGCCGGGCCUCCCCAGCAGCAGCCAUGGGCAUCAAAUUUUUAGAAGUUAUCAAACCAUUCUGUGCAGUUCUACCAGAAAUUCAGAAACCGGAAAGGAA	0.892 ratio
CAGCCUCAGAGCCCAGACUUCCUGGAUAUUACCAACCCUAAAGCGGUAUUAGAAAAUGCAUUGAGAAACUUCGCCUGUCUGACGACUGGAGAUGUGAUUGCCAUCAACUACAAUGAGAAG	0.398 ratio
AUGCAGUAUGAGACCAACAGCAUGGACUUCAAAGUUGGGGCAGAUGGGACAGUCUUCGCCACUAGGGAGCUGCAGGUCCCCUCCGAGCAGGUGGCGUUCACGGUGACUGCAUGGGACAGC	0.205 ratio
UGACAAGGGCACUGCAGGGCCAUGCCUUUCCUUGACAUACAGAAAAAGCUGGGCAUCAGCCUGGACCGGCACUUUAUAAUCCAGAGUGCAGAACAGCCCUAUAAGAACGCCGCUCGGUGC	0.0715 ratio
AGCGUUCAGGAAUUCAUGACCUUUACAAGUCAACUGAUUGUGGAGCGCUCGGGGAAAGGCAGCAGAGCUUCUGUCAAAGAACAAGAGUAUCUUUGCCAUGUCUACGUCCGGAGCGACAGU	0.0896 ratio
AAAGGCAAAAAGGGCAGCUGUGUCAUUUCAUAAGUAACUCUGGGGGAGGGAAAUUCUGUUCUUUUGUUUAAUUUUCCCCCAAAUGAAGCCAAAGUGUGUGUUGAAGAAGGAAGAAUGAAU	0.161 ratio
CACACACUCUUCUGCGGGACCCUCAUCCUGCAGGCCCGGGCCUAUGUGGGACCGCACGUCCUGGCAGUGGUGACCCGGACAGGGUUCUGCACGGCAAAAGGGGGCCUGGUGAGCUCCAUC	0.055 ratio

Series 2 — method: protein binding microarray; molecule type: double-stranded DNA, one strand shown; medium: in vitro; tested at: not given; reference: not given; direction: higher = stronger binding
Target: Histone acetyltransferase KAT6A, both winged helices, GST fusion (KAT6A, Homo sapiens, UniProt Q92794, residues 1-181)
Setting: 8-mer, flanks averaged, mean of 2 arrays, mostly near background
Residues (chain): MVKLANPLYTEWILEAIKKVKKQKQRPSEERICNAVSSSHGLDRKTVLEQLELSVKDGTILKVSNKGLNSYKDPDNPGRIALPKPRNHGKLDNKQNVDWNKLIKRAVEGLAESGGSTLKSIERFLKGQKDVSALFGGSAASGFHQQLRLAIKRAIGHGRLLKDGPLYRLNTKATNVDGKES
Strand	E-score
CTATTGGC	-0.119
ATACTCAC	-0.0696
TCGGACGA	0.144
AACCCCTG	-0.208
CCCGGAGG	-0.0463
GCAGCTGA	0.0312
ACATTCCA	-0.0411
ACCATCGG	-0.000635
GACTGAAC	0.0513
GACATTAA	0.0171
AGCAAGGA	-0.252
AGTGTGCG	0.0319
CGAGGGCA	-0.0208
CAACGCGC	0.31
ACCCTGAC	-0.163
AGGCGTTC	0.0637
AGGTTGAT	-0.136
ACCGAGCT	-0.0288
GAGAGCCC	-0.129
ATATTCAC	-0.212

Series 3 — method: universal PBM; molecule type: double-stranded DNA, one strand shown; medium: in vitro; tested at: 600 nM; direction: higher = stronger binding
Target: Sal-like protein 4, full length isoform A (SALL4, Homo sapiens, UniProt Q9UJQ4, residues 1-1053)
Chain of UniProt Q9UJQ4 (whole entry, looked up): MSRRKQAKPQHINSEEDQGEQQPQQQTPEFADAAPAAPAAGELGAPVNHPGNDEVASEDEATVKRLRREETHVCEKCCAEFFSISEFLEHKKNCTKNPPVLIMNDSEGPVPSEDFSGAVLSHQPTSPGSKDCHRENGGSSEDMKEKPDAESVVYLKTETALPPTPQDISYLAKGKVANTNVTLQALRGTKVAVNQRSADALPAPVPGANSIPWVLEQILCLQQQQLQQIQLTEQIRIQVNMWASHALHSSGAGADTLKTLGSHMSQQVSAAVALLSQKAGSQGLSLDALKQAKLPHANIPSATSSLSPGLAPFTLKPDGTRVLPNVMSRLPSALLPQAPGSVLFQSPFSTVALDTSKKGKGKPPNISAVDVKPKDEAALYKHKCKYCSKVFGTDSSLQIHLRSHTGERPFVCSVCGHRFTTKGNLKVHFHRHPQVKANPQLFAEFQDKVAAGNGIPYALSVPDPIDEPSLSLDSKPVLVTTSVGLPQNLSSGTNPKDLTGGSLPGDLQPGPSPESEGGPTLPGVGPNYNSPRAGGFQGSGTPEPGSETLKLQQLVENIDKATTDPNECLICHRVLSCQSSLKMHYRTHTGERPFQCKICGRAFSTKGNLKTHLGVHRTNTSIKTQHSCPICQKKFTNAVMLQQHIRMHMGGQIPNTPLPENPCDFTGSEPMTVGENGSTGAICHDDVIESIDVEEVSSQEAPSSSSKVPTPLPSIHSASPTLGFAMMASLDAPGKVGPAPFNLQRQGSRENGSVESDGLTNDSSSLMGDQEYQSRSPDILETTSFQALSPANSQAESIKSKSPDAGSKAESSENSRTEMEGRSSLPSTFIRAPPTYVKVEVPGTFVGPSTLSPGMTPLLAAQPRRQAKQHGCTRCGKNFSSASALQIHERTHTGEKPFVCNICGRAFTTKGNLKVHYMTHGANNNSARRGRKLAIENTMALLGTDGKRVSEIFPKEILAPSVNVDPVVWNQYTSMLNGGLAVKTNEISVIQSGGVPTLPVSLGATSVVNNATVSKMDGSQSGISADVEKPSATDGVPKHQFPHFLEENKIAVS
Setting: 8-mer, flanks averaged, mean of replicates
Strand	E-score
ATGGAGGA	0.0865
CAATGTAG	-0.00787
CCCGGGGC	-0.424
ATAATTCC	0.352
CACGAGCG	-0.192
CCTCGGCA	-0.202
AAGGAGAT	0.0914
AGAACGAT	0.058
CAATGCCG	-0.134
GAGAGCAC	-0.134
ACGTAACT	-0.0346
ACCCGATA	-0.0447
TTAGGGAA	0.195
GTGTCAGA	-0.0108
CGCGCTCC	-0.309
AGCTCCTG	-0.255
ACGTACCA	-0.0405
AAAAAGGC	0.14
CGTCGACG	-0.357
AGCCACTC	-0.1
ATAAGGTA	0.155
AATATGGC	0.197
ATACGGAA	0.0875
GAGTCGAC	-0.124

Series 4 — method: RNA Bind-n-Seq; molecule type: RNA; medium: in vitro; tested at: 365 nM; reference: no-protein control; direction: higher = stronger binding
Target: RNA binding protein fox-1 homolog 2, RRM domain, GST-SBP tag (RBFOX2, Homo sapiens, UniProt O43251-10, residues 100-194)
Setting: natural RNA segment, single round, ends assumed
All sequences stand within: GGGAGUUCUACAGUCCGACGAUC … UGGAAUUCUCGGGUGCCAA
Residues (chain): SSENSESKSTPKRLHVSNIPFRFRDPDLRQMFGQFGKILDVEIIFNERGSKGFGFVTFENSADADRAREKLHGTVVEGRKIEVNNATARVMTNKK
Strand	RBNS enrichment (R)
UUCUUUUCACUGUUGGUAUUUAUAGCACCUACCUUCAGAUUUUUCAGUAUGAUGUUUCUAUUUUCCAAUACUGGUUCCCUAACGGUCAACAUUUCUUCUCCCAACUAAAA	1.02
UGGGGAAGUCUCAUGUAACUCAGAACACUAUCCUGGUCCCAGGCUACACUGUGCACUACGUCUUUAGGGUUGUUUAUUUCACUGCGGGUCAUUUUCUGAUUCUUGUUGUU	0.331
AGUUUGGCUGUUGUUGCAGGAAAAUGAUUAUAACUAAAAGCUCUCUGAUAGUGCAGAGACUUACCAGAAGACACAAGGAAUUGUACUGAAGAGCUAUUACAAUCCAAAUA	0.563
GUAGCGGCUUGGGUCUGACACAUCUUUGAACCUUGUGGCCAGGCCUGGACUUCGCCCCCAGGCCUAGGACCGCGGUGGGUGGAACCCUGCUACUGCCCCAACAGGGACUC	0.325
UAAACCAUGGCUGGGCAUAACUAUUCCGAACUGUCCCCCCAUCAGGAUACAAGAUGCUGAGAGGGCUGCAGGGCCAUUCCAUCAAGCCCCAGGGUGAAAGGGCUGGCAUG	1.02
GGGGAUAGGGUGUCCUUGGGAACAAUGGAUCCCAGCUUAGCCCCAAAGACCAACCAAAGAGCCAGCCAGAGUAAGCUGGACCUGCAACCUGCCUGAGCCCCGUGGCCUCU	0.708
AUAGUGAAAGCUGACCACAGUUGUUCCCAAAUAAAGGUCGGCAGCUCCUACCAGGUCUGGGAUUGAGAUGUUAGAGUCUUCAGUUUUAUAGCCGGCUCCUGAAAGCAGGC	0.346
UGUUAUAGGGUCCCCUCCCUGACGCCUAAAAUAUUUGUAACUACACCUAAAAGGGUUUUGCUUCGGGAUUUUUGUUUGUUCGGUUUUUUUGUUUUUUUAAAGAAAAAGAA	0.779
AAUUGGUGUGUCCUAUGGAAAUGGAAAGAAAGAUAGAUAAGACAUUUCUGUCAAUUUUCAAGAACUUGGCUGUUUAUCUUUAAGAAAGAUAAAAUAUAUAUCCAAAAUAA	0.584
UCGGCCUAUAUCUGACCAUUAGGUCCCUCCCCUUCAGUAGGUCCUGGAGACAUAGGGGCUGCUACCAGGGGAGGAACACACCUGGGUGUGGGGCAGCUUCUGGCAUCUUC	0.258
GUUGAUGUUUGGUUCGGUAUUCUUGCAUAAAACUUAAAAAUUAAACGAACGCUGCAGAGUUUACUGAUGUAUAUCAAAGGCCAAUAAGCUCUUUUAAUUGGUGACAGAUC	0.632
GUUUUAAAUGUAUGUAUUAUAAAUAUCUGUAACCAAAUCAUUUGAAGGCUUGAUAAAUUUUUAACAAAGUUUGUACAUUUUUUAUGAAAGUUACUAGUAAUGCUUUACUA	0.772

Series 5 — method: aptamer microarray, sandwich; molecule type: DNA with 2'F-ANA; medium: in vitro; tested at: 200 nM; with: Cy3 exosite-II aptamer, 400 nM; direction: higher = stronger binding; strand: GGTTGGTGTGGTTGG
Target: Prothrombin, mature alpha-thrombin (F2, Homo sapiens, UniProt P00734)
Setting: whole 15-mer aptamer, many near background
Modification	mean fluorescence intensity
2'F-ANA at 2 6 12 15	663 a.u.
2'F-ANA at 1 3 4 5 6 8 14 15	49.5 a.u.
2'F-ANA at 1 4 5 6 10 13 14	51.2 a.u.
2'F-ANA at 4 5 8 12 13 14	46 a.u.
2'F-ANA at 1 4 7 8 10 13 14	83.9 a.u.
2'F-ANA at 1 2 5 8 10 11 14 15	46.8 a.u.
2'F-ANA at 2 3 9 10 13 14	248 a.u.
2'F-ANA at 1 3 5 7 8 10 11 13 14 15	50.3 a.u.
2'F-ANA at 4 8 10 11 12	105 a.u.
2'F-ANA at 2 3 5 7 8 9 10 12 15	67.6 a.u.
2'F-ANA at 3 6 7 11 12 14	626 a.u.
2'F-ANA at 4 5 6 7 10 14 15	45.8 a.u.
2'F-ANA at 1 5 8 9 12 14 15	51.7 a.u.
2'F-ANA at 7 8 10 13	177 a.u.
2'F-ANA at 3 4 6 7 9 10 11 12 15	268 a.u.
2'F-ANA at 2 3 4 5 6 8 10 11 13	54.4 a.u.
2'F-ANA at 1 3 5 8 11 12 13	89.2 a.u.
2'F-ANA at 1 3 4 8 9 10 11 12 13	85 a.u.
2'F-ANA at 1 2 8 12 13 14	68.9 a.u.
2'F-ANA at 2 3 6 7 9 11	594 a.u.
2'F-ANA at 1 2 3 4 5 6 7 8 9 10 13 14 15	61.6 a.u.
2'F-ANA at 3 4 5 8 9 10 13	49.1 a.u.
2'F-ANA at 1 2 3 6 12 13 15	286 a.u.
2'F-ANA at 3 5 6 11 13 15	73.3 a.u.
2'F-ANA at 1 2 6 7 8 9 10 12 13 14	51.1 a.u.

Excerpt of the above (series 2):
Strand	E-score
ACCATCGG	-0.000635
GACTGAAC	0.0513
GACATTAA	0.0171
AGCAAGGA	-0.252
AGTGTGCG	0.0319
CGAGGGCA	-0.0208
CAACGCGC	0.31
ACCCTGAC	-0.163
